Published values gathered from unrelated publications.
Each line is one published result; not all experiments were run side by side. Numbers after ± are the reported error.

C[C@H](CN(C)Cc1ccccc1)NC(=O)c1ccc(-c2noc(C(F)(F)[18F])n2)cc1  tissue uptake (PET imaging; female Sprague-Dawley rats, brain; intravenous, 60 min): 1.11 ± 0.26 SUV
CCCC[C@@H]1NC(=O)[C@@H](NC(=O)[C@H](CCC(=O)O)NC(=O)CNC(=O)CN2CCN(CC(=O)O)CCN(CC(=O)O)CCN(CC(=O)O)CC2)CCCCNC(=O)C[C@@H](C(N)=O)NC(=O)[C@H](C(C)C)NC(=O)[C@@H]2CCCN2C(=O)[C@H](CCCNC(=N)N)NC(=O)CNC(=O)[C@H](Cc2c[nH]c3ccccc23)NC(=O)[C@H](CCCNC(=N)N)NC(=O)[C@@H](Cc2ccccc2)NC(=O)[C@H](Cc2c[nH]cn2)NC(=O)[C@H](CCC(=O)O)NC1=O [gallium-67 labelled]  tissue uptake (C57 mice with B16/F1 melanoma, muscle; intravenous, 0.037 MBq, 0.5 h): 0.46 ± 0.28 %ID/g
O=C([O-])CN1CCN(CC(=O)[O-])CCN(CC(=O)[O-])CCN(CC(=O)[O-])CC1.[64Cu+2]  tissue uptake (healthy athymic nude mice, kidney; intravenous, 24 h): 0.93 %ID/g
CCCC[C@H](NC(=O)CNC(=O)CNC(=O)CN1CCN(CC(=O)O)CCN(CC(=O)O)CCN(CC(=O)O)CC1)C(=O)N[C@H]1CC(=O)NCCCC[C@@H](C(N)=O)NC(=O)[C@H](Cc2c[nH]c3ccccc23)NC(=O)[C@H](CCCNC(=N)N)NC(=O)[C@@H](Cc2ccccc2)NC(=O)[C@H](Cc2c[nH]cn2)NC1=O [copper-64 labelled]  tissue uptake (C57 mouse female B16/F1 melanoma, intestines; intravenous, 0.037 MBq, 24 h): 6.63 ± 0.51 %ID
CC(C)[C@H](NC(=O)[C@@H]1CCCN1C(=O)[C@H](CCCNC(=N)N)NC(=O)[C@H](CS)NC(=O)[C@H](Cc1c[nH]c2ccccc12)NC(=O)[C@H](CCCNC(=N)N)NC(=O)[C@@H](Cc1ccccc1)NC(=O)[C@H](Cc1c[nH]cn1)NC(=O)[C@H](CCC(=O)O)NC(=O)[C@H](CS)NC(=O)[C@H](CS)NC(=O)CNC(=O)[C@@H]1CC(=O)N[C@@H](CCCNC(=N)N)C(=O)NCC(=O)N[C@@H](CC(=O)O)C(=O)N[C@H](Cc2ccc(O)cc2)C(=O)N1)C(N)=O [technetium-99m labelled]  tissue uptake (C57 mouse, female, B16/F1 melanoma, brain; intravenous, 0.037 MBq, 2 h): 0.07 ± 0.02 %ID/g
CN1C(=O)[C@@H](Cc2ccc(O)c(I)c2)NC(=O)CNC(=O)[C@H](Cc2ccc3ccccc3c2)NC(=O)[C@H](CCCNC(=N)N)NC(=O)[C@H]1CCCNC(=O)c1ccc(CNC(=O)CN2CCN(CC(=O)O)CCN(CC(=O)O)CCN(CC(=O)O)CC2)cc1 [lutetium-177 labelled]  tissue uptake (measured: 177Lu radioactivity; female CB-17 SCID mice, Daudi xenograft, liver; intravenous, 0.16 nmol per mouse, 48 h): 8.25 ± 2.23 %ID/g
O=C(O)C1CN(Cc2ccc(-c3noc(-c4ccc(OCC[18F])c(C(F)(F)F)c4)n3)cc2)C1  tissue uptake (male Sprague-Dawley rat, spleen; intravenous, 30 min): 0.282 ± 0.03 %ID/g
CCCC[C@H](NC(=O)CNC(=O)CNC(=O)CN1CCN(CC(=O)O)CCN(CC(=O)O)CCN(CC(=O)O)CC1)C(=O)N[C@H]1CC(=O)NCCCC[C@@H](C(N)=O)NC(=O)[C@H](Cc2c[nH]c3ccccc23)NC(=O)[C@H](CCCNC(=N)N)NC(=O)[C@@H](Cc2ccccc2)NC(=O)[C@H](Cc2c[nH]cn2)NC1=O [gallium-67 labelled]  tissue uptake (female C57 mice, B16/F1 melanoma, muscle; intravenous, 0.037 MBq, 24 h): 0.3 ± 0.18 %ID/g
CCCC[C@H](NC(=O)CNC(=O)CNC(=O)CN1CCN(CC(=O)O)CCN(CC(=O)O)CC1)C(=O)N[C@H]1CC(=O)NCCCC[C@@H](C(N)=O)NC(=O)[C@H](Cc2c[nH]c3ccccc23)NC(=O)[C@H](CCCNC(=N)N)NC(=O)[C@@H](Cc2ccccc2)NC(=O)[C@H](Cc2c[nH]cn2)NC1=O [copper-64 labelled]  tissue uptake (C57 mouse B16/F1 melanoma, skin; 0.5 h): 2.23 ± 0.21 %ID/g
CCN(CC)c1ccc2c(-c3ccccc3C(=O)OCCOCCOCC[18F])c3ccc(=[N+](CC)CC)cc-3oc2c1  tissue uptake (rat, kidney; 60 min): 3.24 ± 0.43 %ID/g
CC(C)[C@H](NC(=O)[C@@H]1CCCN1C(=O)[C@H](CCCNC(=N)N)NC(=O)[C@H](CS)NC(=O)[C@H](Cc1c[nH]c2ccccc12)NC(=O)[C@H](CCCNC(=N)N)NC(=O)[C@@H](Cc1ccccc1)NC(=O)[C@H](Cc1c[nH]cn1)NC(=O)[C@H](CCC(=O)O)NC(=O)[C@H](CS)NC(=O)[C@H](CS)NC(=O)[C@@H]1CC(=O)N[C@@H](CCCNC(=N)N)C(=O)NCC(=O)N[C@@H](CC(=O)O)C(=O)N[C@H](Cc2ccc(O)cc2)C(=O)N1)C(N)=O [technetium-99m labelled]  tissue uptake (C57 mouse, female, B16/F1 melanoma, bone; intravenous, 0.037 MBq, 2 h): 0.92 ± 0.35 %ID/g
